Measured values gathered from unrelated publications.
Lines come from different studies, so protocols differ. ± marks the error that the study gave.
Putative PAS/PAC sensor protein full length assumed: Putative PAS/PAC sensor protein full length assumed (Nakamurella multipartita, UniProt C8XJT7)
Chain of UniProt P21693 (whole entry, looked up): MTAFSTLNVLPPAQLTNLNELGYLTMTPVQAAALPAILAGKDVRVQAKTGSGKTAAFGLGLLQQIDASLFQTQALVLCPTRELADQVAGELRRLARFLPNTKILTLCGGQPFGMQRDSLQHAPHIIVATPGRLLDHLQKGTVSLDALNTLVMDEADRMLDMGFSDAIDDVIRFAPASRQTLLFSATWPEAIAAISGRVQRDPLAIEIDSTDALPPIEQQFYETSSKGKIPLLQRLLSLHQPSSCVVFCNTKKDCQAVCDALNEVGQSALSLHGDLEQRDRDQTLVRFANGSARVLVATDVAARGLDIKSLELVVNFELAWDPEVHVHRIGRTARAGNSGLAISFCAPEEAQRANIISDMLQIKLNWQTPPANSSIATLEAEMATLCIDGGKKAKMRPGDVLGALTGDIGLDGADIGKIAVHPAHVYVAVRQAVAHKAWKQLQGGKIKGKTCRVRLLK
Chain of UniProt P60335 (whole entry, looked up): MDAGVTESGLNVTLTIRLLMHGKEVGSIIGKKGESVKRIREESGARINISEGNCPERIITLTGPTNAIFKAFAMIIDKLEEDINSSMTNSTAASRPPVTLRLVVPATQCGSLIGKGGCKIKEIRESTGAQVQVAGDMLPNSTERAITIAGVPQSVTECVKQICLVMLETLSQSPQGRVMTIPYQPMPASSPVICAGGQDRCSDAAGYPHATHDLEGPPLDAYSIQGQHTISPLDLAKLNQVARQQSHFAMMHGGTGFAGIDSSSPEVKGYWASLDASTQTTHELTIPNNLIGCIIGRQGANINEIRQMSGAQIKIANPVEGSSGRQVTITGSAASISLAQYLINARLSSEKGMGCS
Chain of UniProt O26901 (whole entry, looked up): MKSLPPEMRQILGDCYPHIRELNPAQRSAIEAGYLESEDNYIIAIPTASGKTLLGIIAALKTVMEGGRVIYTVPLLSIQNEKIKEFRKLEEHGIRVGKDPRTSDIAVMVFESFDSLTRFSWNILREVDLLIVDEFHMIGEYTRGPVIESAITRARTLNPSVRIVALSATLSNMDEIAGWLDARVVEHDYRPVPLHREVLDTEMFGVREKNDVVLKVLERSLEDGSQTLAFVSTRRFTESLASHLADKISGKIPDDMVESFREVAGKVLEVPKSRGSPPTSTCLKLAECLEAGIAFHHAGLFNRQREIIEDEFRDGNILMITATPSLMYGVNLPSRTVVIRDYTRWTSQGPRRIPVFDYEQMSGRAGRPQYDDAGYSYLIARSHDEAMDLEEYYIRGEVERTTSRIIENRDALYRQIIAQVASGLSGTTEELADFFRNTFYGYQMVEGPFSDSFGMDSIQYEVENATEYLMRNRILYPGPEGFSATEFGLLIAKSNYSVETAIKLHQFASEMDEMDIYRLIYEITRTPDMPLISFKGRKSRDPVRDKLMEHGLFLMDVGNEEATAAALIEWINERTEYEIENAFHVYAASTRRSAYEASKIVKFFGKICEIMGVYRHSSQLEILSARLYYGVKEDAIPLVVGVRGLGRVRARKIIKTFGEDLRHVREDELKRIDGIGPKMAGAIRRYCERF
Chain of UniProt P38996 (whole entry, looked up): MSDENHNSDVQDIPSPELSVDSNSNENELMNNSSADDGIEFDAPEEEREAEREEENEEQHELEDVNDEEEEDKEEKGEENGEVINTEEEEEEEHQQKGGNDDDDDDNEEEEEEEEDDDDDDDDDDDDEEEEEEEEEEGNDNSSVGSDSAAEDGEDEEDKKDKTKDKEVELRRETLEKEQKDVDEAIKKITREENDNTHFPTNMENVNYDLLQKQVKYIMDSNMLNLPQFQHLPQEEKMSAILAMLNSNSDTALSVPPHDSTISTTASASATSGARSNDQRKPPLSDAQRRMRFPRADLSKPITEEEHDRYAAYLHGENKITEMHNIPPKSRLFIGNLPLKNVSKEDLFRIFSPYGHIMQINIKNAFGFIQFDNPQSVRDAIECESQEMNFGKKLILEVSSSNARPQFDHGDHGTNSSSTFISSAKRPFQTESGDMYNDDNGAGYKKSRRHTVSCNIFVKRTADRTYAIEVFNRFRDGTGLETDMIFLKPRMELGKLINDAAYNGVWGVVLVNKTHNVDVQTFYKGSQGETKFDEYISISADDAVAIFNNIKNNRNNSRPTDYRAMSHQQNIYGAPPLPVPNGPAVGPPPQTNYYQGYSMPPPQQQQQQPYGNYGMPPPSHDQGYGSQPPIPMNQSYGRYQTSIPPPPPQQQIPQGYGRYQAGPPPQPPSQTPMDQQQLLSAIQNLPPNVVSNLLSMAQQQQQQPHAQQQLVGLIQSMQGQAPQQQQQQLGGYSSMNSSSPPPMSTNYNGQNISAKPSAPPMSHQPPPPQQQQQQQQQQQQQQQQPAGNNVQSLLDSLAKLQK

The Kd of `GCCCTGAAAGATTATGGAATGGGATTAGGGTAAAGGAAGAGAGCATAATCTTTCAGGGC (hairpin DNA; hairpin, 16 bp stem, 27 nt loop)` is reported as 0.5 ± 0.02 nM (topA full length assumed (Escherichia coli, UniProt P06612); fluorescence anisotropy; folded DNA; with: EDTA).
For `GGAUUGUUACUGAUAAAGCAGGCAAAACC (ssRNA; hairpin, two internal loops)`, the Kd was 600 ± 200 nM (sacY 1-55 A26R (Bacillus subtilis, UniProt P15401); SPR; folded RNA).
`GGGAGGACGAUGCGGUGAUCCACGGGUUACUGGUAUCGCUCAGUGAGGUUGAAACCAGACGACUCGCUGAGGAUCCGAGA (stem-loop RNA; stem loop)`: binding “binds” (Putative PAS/PAC sensor protein full length assumed; RiboGreen well assay; folded RNA; with: blue light).
`DNA 1 TCACGCGGGATCAATGTGTTCTTTCAGCTCCGGTCACGCTGACCAGGAATACCTCACTACC / DNA 2 GGTAGTGAGGTATTCCCCCGTAAGGGTCCGTAAGGATGGTCAGCGTGACCGGAGCTGAAAGAACACCCGTAAGGGTCCGTAAGGACATTGATCCCGCGTGA (structured DNA; four-way junction, 5-methyl-dC)` — result for binding: “binds” (ROS1 1-1393 Q607A (Arabidopsis thaliana, UniProt Q9SJQ6); EMSA; folded DNA; 130 nM).
For `AAUUGCUACCCAAUGCCUGGCCCAAGGGCAUUCCCAAAGCUUA (ssRNA)`, binding read “binds” (Pcbp1 279-343 (Mus musculus, UniProt P60335); EMSA; RNA).
`CCCCGUAGAAAAUCUUAGUAAUCCUUCUUACAUUG (ssRNA)` gave a Kd of 46000 ± 1000 nM (NAB3 321-415 (Saccharomyces cerevisiae, UniProt P38996); fluorescence anisotropy; RNA).
`DNA 1 ATCGATAGTCTCTAGACAGCATGTCCTAGCAAGCCAGAATTCGGCAGCGT / DNA 2 TAGCTATCAGAGATCTGTCGTACAGG (DNA; 3' ssDNA tail, 25 nt displaced strand)` — result for binding: “binds” (hel308 1-690 (Methanothermobacter thermautotrophicus, UniProt O26901); EMSA).
With `GCCCTGAAAGATTATGGAATGCGATTAGGGTAAAGGAAGAGAGCATAATCTTTCAGGGC (hairpin DNA; hairpin, 16 bp stem, 27 nt loop)` the Kd was 0.48 ± 0.02 nM (topA full length assumed Y177S (Escherichia coli, UniProt P06612); fluorescence anisotropy; folded DNA; with: EDTA).
`GGUUGAUGCAGACGACC (structured RNA)`: binding “no binding” (Putative PAS/PAC sensor protein full length assumed; 32P well-retention assay; folded RNA; with: blue light).
`AUUUUUUUUUUUUAGGUCUUAAGGGUAUGGCUGUUCGCCAUUU (structured RNA)` gave a Kd of 56.9 ± 0.2 nM (dbpA full length assumed (Escherichia coli, UniProt P21693); SPR; folded RNA; KCl 50 mM, kinetic, no ATP).
For `ATGAAGAGACAACACGCGTGAA (dsDNA)`, binding read “binds” (AP2/ERF domain-containing protein 1-442 (Vitis vinifera, UniProt A5C831); EMSA; double-stranded DNA, one strand shown).
`GGUUUGUUACUGAUAAAGCAGGCAAGACC (ssRNA (Bacillus subtilis); hairpin, two internal loops)` gave a Kd of 5500 ± 2200 nM (licT 1-56 (Bacillus subtilis, UniProt P39805); SPR; folded RNA).
For `GGUUGAAGCAGACGACC (hairpin RNA; hairpin, 7-nt loop)`, the Kd was 12 ± 1 nM (Putative PAS/PAC sensor protein full length assumed; fluorescence anisotropy; folded RNA; 22 °C, with: blue light).
For `GCCCTGAAAGATTATGGAATGAGATTAGGGTAAAGGAAGAGAGCATAATCTTTCAGGGC (hairpin DNA; hairpin, 16 bp stem, 27 nt loop)`, the Kd was 0.55 ± 0.12 nM (topA full length assumed R169A (Escherichia coli, UniProt P06612); fluorescence anisotropy; folded DNA; with: EDTA).

Repeated from above:
`CCCCGUAGAAAAUCUUAGUAAUCCUUCUUACAUUG (ssRNA)` gave a Kd of 46000 ± 1000 nM (NAB3 321-415 (Saccharomyces cerevisiae, UniProt P38996); fluorescence anisotropy; RNA).
For `ATGAAGAGACAACACGCGTGAA (dsDNA)`, binding read “binds” (AP2/ERF domain-containing protein 1-442 (Vitis vinifera, UniProt A5C831); EMSA; double-stranded DNA, one strand shown).
